Experimental data of several laboratories.
Each numbered part is a random draw from the data of one study; scales do not carry over between parts.

Sample 1
Target: Fragile X messenger ribonucleoprotein 1, C-terminal low-complexity region (Fmr1, Mus musculus, UniProt P35922)
Method: RNA Bind-n-Seq
Form: RNA
Sample: in vitro
Tested at: 200 nM
Setting: whole 134-nt RNA, ends assumed
Together with: 150 mM LiCl
Baseline: input library
Reading: higher = stronger binding
Library: 7-deaza-guanosine replaces G
Oligonucleotide	log2 enrichment
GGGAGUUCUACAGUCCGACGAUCCAAGUCCUGUGCUACACAUCGUAUGUACCGAAUCGGGUUUGGGAGGGUUUUUGGGAAAGUAUUAUGUUACGCCGUUCGGAUCUGCACUUCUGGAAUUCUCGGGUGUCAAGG	-0.408
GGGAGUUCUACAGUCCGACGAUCGCAGGAAGUAAAAACAAAUGGAAAUGCUUCGGAUAGUGGCAGGGGUGGGGGUUGCUAAGGAUAGGGUGGGAUGGGAGUGGGUAAAGAGUUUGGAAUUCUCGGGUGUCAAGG	1.06
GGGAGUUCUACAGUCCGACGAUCCCUCAAGUCCUGUGCUACACAUCGUAUGUACCGAAUCGGGGAGGGAGGGGAGGAAAGUAUUAUGUUACGCCGUUCGGAUCUGCACUUCCAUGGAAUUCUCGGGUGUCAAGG	-1.18
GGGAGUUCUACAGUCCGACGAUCGUCCUGUGCUACACAUCGUAUGUACCGAAUCGGGGAAAAAGGGGUUUUUGGGGAGGGGAAAGUAUUAUGUUACGCCGUUCGGAUCUGCACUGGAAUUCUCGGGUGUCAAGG	-0.761
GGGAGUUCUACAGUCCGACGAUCGCAGGAAGUAAAAACAAAUGGAAAUGCGUCGGAUAGUGGCAGGGGUGGGGGUUGCUAAGGAAAGGGUGGGAUGGGAGUGGGUAAAGAGUUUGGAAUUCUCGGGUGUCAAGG	1.32
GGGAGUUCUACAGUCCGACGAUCACCAUGCAGGUGGGCAUCUUUGGGAAGUGCGGCAAGGGGGGGAUAGGGAGGGGGGUAACACUUUGGGAACAGGUGGUCCCAGGUCGUUUCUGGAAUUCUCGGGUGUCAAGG	1.06
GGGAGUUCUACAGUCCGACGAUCAAGUCCUGUGCUACACAUCGUAUGUACCGAAUCGGGGAAAGGGGUGGGGAAAGGGGAAAGUAUUAUGUUACGCCGUUCGGAUCUGCACUUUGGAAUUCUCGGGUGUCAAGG	-0.29
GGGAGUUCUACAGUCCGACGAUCUCUUCAGAGGCCCCACAGUAUCAAAUAUCCGCCUGGCUGGAUUAGAGUAUGUUCUGCACUUCACUGCACUGAAUGGGAAGAUUUACUUUCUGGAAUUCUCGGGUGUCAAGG	0.793
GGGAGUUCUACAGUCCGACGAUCUCCUCAAGUCCUGUGCUACACAUCGUAUGUACCGAAUCGGCGGGGCGGGCGGAAAGUAUUAUGUUACGCCGUUCGGAUCUGCACUUCCAGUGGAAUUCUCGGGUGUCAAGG	0.695
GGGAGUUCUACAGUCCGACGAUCCAAGUCCUGUGCUACACAUCGUAUGUACCGAAUCGGGUUUGGGUUUGGGUUUGGGAAAGUAUUAUGUUACGCCGUUCGGAUCUGCACUUCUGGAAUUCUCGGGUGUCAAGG	-1.22
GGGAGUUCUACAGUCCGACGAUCUGUGAGCGGAGCCUGGAGGAGCUGCUGCACUACGUGGGCCAGCUGCGGGCUGAGCUGGCCAGCGCAGGUGGGUGGCCACCCUUGCAAGUGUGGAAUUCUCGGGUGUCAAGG	-1.13

Sample 2
Target: Prothrombin, mature alpha-thrombin (F2, Homo sapiens, UniProt P00734)
Method: aptamer microarray, sandwich
Form: DNA with 2'F-ANA
Sample: in vitro
Tested at: 200 nM
Setting: whole 15-mer aptamer, many near background
Together with: Cy3 exosite-II aptamer, 400 nM
Reading: higher = stronger binding
Oligonucleotide: GGTTGGTGTGGTTGG
Modification	mean fluorescence intensity [a.u.]
2'F-ANA at 1 2 3 4 8 9 11 14	77.6
2'F-ANA at 1 2 6 8 12	388
2'F-ANA at 2 3 5 7 10 14 15	50.2
2'F-ANA at 2 5 6 7 9 10 14 15	43.9
2'F-ANA at 3 7 8 10 14 15	451
2'F-ANA at 2 4 6 8 9 12	584
2'F-ANA at 2 3 7 10 12 13 14 15	290
2'F-ANA at 2 4 5 6 7 9 10 13 14 15	46.9
2'F-ANA at 2 7 9 10 12 13 15	156
2'F-ANA at 1 2 4 5 6 7 8 10 11	48
2'F-ANA at 5 6 7 8 10 11 12 13 14	44.7
2'F-ANA at 1 3 4 8 10 11 12 13 14	77.4
2'F-ANA at 1 2 3 5 7 9 12 13 14 15	53.1
2'F-ANA at 1 2 3 4 6 7 9 11 14 15	56.2
2'F-ANA at 2 4 5 10 13 14 15	79.1
2'F-ANA at 2 4 6 7 8 9 11 12	470
2'F-ANA at 2 3 5	187
2'F-ANA at 4 5 6 7 8 9 11 12 13 14 15	63.7
2'F-ANA at 1 3 5 7 8 12 13 14	58.4

Sample 3
Target: Interferon regulatory factor 5, full length, phosphomimetic (IRF5, Homo sapiens, UniProt Q13568-2, residues 1-514, K96S/S451D/S453D/S456D/S462D)
Method: protein-binding microarray
Form: double-stranded DNA, one strand shown
Sample: in vitro
Tested at: 250 nM
Setting: 60-bp whole probe
Together with: salmon DNA 0.4 mg/ml
Baseline: random background probes
Reading: higher = stronger binding
All sequences stand within: GCCTAGCAC … GTCTTGATTCGCTTGACGCTGCTG
Oligonucleotide	log fluorescence [z-score]
GACGATTTTAGTTTCGAGACGTGCTAG	7.51
TTAGCACTGGGGTTTCGGTTAGTGCTA	6.82
TCATATATCTTATCCTAACTGTGCTAG	0.731
TTAGGTATCGGGTATGGGTTAGTGCTA	3.64
GACGAACTGGGTCTCGGGACGTGCTAG	-0.431
GACGATATCCGGACTGGAGACGTGCTA	0.187
CTGGCCTGGGGTCTGCAGAGGTGCTAG	-0.803
GACGGACTGATACTGCTGACGTGCTAG	-0.0827
GACGGTCTCGGTATAGGGACGTGCTAG	0.31
CTGTTTTTGCTTTCCTTCATGTGCTAG	2.14
TCATGTATATCTTCAGCACTGTGCTAG	0.135
TTAGGTTCAGGTTTCGGTTAGTGCTAG	8.11
GTGCTTCACAGAGGCGGCTGGTGCTAG	-0.497
GAAATTTTTTTTCTAACTAAGTGCTAG	1.63
TCATCACTCTGTCCCTCACTGTGCTAG	0.427
TCATTTCTAAATTCCCTACTGTGCTAG	1.19
GACGGTCTCGACTATCGGGACGTGCTA	1.05
GACGGAATGGGTCTCGGGACGTGCTAG	-0.327
GACGGTTTCGGTTCCGGGACGTGCTAG	9.5
TTAGGTTTCCTTTCCGTTTAGTGCTAG	2.3

Sample 4
Target: Histone acetyltransferase KAT6A, both winged helices, GST fusion (KAT6A, Homo sapiens, UniProt Q92794, residues 1-181)
Method: protein binding microarray
Form: double-stranded DNA, one strand shown
Sample: in vitro
Tested at: not given
Setting: 8-mer, flanks averaged, mean of 2 arrays, mostly near background
Baseline: not given
Reading: higher = stronger binding
Target sequence (chain): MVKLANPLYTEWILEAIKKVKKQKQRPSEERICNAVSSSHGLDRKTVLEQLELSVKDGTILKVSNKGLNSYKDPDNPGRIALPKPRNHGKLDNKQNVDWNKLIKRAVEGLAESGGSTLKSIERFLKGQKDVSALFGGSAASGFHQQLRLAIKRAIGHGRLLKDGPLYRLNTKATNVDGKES
Oligonucleotide	E-score
CTTAATTA	-0.165
CATTAGGG	-0.147
CCTTGCCC	-0.0321
GTCACAAA	-0.00775
AGACGACC	-0.0205
CGTCAGTA	0.0434
AGGACATG	-0.154
CATGTCGA	-0.0596
GACTGACA	-0.0309
CACAAGAA	-0.0198
TATACATA	-0.111
TGTGCACA	-0.0471
TCCACCCA	-0.225
ATAGGTCA	-0.0629
CGACGGAG	0.24
CCCCGATC	-0.00235
CGAATCAC	-0.0452
AAGCGCCT	0.195
ATTTGCTA	-0.143
AACGACAC	-0.146
GGTGTCTA	-0.146
GAGCTCTA	-0.0279
AGTTTGTA	-0.156
AGCACGTA	-0.0925
ATGGGGAA	-0.217

Sample 5
Target: Centromere-binding protein 1, full length, His-tagged (CBF1, Saccharomyces cerevisiae, UniProt P17106, residues 1-351)
UniProt P17106, sequence (whole entry, looked up): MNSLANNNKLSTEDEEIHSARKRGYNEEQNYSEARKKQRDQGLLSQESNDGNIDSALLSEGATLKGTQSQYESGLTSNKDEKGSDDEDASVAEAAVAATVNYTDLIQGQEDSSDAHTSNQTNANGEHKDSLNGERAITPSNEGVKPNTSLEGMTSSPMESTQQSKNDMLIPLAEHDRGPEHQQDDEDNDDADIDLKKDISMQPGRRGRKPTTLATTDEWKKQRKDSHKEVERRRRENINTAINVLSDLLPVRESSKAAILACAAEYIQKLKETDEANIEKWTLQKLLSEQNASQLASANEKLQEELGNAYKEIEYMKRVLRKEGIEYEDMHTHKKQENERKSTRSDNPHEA
Method: competition protein-binding microarray
Form: double-stranded DNA, one strand shown
Sample: in vitro
Tested at: 2 µM
Setting: whole 60-bp probe, lowest competitor level
Together with: Pho4 competitor, 0.05 µM
Reading: higher = stronger binding
Oligonucleotide	fluorescence intensity
GACTTTAGCTGCAACGGCGTGGGTATGCCGCAGCGGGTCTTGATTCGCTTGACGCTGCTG	70.4 a.u.
AAGAATGTCATATTCTTCGTGACGGATGGGATGGGAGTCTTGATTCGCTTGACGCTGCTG	62.6 a.u.
GCAGCCAGGAGCTGGCACGGCGCCAACTGAAAAGTTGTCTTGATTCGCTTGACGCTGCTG	44.7 a.u.
CATACCCAACCTTGAAAGGTGGGTGAAGATATTTGTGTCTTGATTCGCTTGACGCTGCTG	74.7 a.u.
GTGTCAAACAATGTTTACGTTATTCTTTGGTGGGAAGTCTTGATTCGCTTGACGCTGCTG	78.6 a.u.
CTTCTGTAAATTTGTCACGCAACTTGACGCGCCCCGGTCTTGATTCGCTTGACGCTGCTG	143 a.u.
GTCTTGTCTCATTTTCACGTGGGATTCCCCACTTCAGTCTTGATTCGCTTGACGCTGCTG	428 a.u.
GACACCACTGACTTAACCGTGGGTATATTATATAAGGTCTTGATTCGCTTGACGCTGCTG	67.2 a.u.
GATTCACTTGATATTCACGTGCAAAAACCATTAGTAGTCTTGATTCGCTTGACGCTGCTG	1320 a.u.
CCCCCAACTGACACACACGTGAGACCCTGCTGAAAGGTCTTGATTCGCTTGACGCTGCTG	689 a.u.
CTTTCCCGATCTTGTCACGCGACTTTAGCACATTTGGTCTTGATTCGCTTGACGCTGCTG	645 a.u.
ACAAATTTAGTATCTCACGTGTATACAATTGCTCTGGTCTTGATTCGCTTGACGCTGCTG	2010 a.u.
GCACTACCATGTTTGCACGTGTCGGTGTCCTCATCAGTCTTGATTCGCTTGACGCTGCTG	1260 a.u.
TCACTTTAACCACCATTTCTTTAAGCTAAAGTTTAGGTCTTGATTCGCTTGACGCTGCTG	84.8 a.u.
TCAATAAAATCAAGTCATTCATTGATACGAAGTTGAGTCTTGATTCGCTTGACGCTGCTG	84.3 a.u.
AAAGCGGTAATTTGTGCCGTGGGTGCAGATATCTATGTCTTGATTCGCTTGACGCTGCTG	68.6 a.u.

Sample 6
Target: Sal-like protein 4, full length isoform B (SALL4, Homo sapiens, UniProt Q9UJQ4-2, residues 1-616)
Method: universal PBM
Form: double-stranded DNA, one strand shown
Sample: in vitro
Tested at: not given
Setting: 8-mer, flanks averaged, mean of replicates
Reading: higher = stronger binding
Target sequence (chain): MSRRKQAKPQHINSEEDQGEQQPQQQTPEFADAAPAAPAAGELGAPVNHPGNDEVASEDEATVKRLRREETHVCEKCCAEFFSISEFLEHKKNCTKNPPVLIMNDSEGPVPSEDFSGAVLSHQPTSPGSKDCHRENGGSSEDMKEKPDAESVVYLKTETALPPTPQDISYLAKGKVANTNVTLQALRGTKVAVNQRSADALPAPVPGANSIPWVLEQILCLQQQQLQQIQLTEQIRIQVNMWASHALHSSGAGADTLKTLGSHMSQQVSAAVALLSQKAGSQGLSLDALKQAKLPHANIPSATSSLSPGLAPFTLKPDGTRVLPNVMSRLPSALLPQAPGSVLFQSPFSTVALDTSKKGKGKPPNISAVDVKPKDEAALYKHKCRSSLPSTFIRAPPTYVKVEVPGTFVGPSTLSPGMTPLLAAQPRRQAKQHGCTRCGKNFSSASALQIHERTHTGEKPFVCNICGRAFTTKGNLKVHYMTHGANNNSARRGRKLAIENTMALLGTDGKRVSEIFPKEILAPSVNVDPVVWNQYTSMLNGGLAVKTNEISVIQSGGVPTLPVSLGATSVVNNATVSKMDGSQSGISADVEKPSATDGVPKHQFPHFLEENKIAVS
Oligonucleotide	E-score
AAAGCTCA	0.00687
CTGTAGTC	-0.0909
AGTCCTAC	-0.0681
AGTCAGGG	-0.209
CACGTACG	-0.0233
ACCCTAGT	-0.109
CAGGGGAG	-0.156
TCTACGAA	-0.00649
GGGCCGAA	-0.361
ATTAGGTA	0.223
GATATGCC	-0.0624
ATTGCAGC	0.0465
TCTGTCCA	0.0727
GTAGGAAA	0.00364
AATGGACT	-0.0258
AGACGAAG	-0.0642
ATAGCTAT	0.334
AGGAGAGA	0.0366
TCATGAGA	0.00325
CCCCTGTC	-0.273
AAGAGCGG	-0.231
GCGGGCGA	-0.363
TCCCTAGA	-0.0479
GTGCTATA	0.321
GAAAATAC	0.0833

Further values, each from its own experiment
Sequence	organism	test	test system	conditions	scale	measurement	value
ARKRLELGNLGNPQ	Saccharomyces cerevisiae	binding, competitive growth deep sequencing	peptide, cyclin E1-Cln2 fusion strain	concentration not given, tiling library, Cln2 subtracted	direction not given	growth enrichment score	-0.252

Repeated from above (sample 4):
Oligonucleotide	E-score
GACTGACA	-0.0309
GAGCTCTA	-0.0279
CCTTGCCC	-0.0321
ATTTGCTA	-0.143
AGACGACC	-0.0205
CACAAGAA	-0.0198
CGAATCAC	-0.0452
CGACGGAG	0.24
CTTAATTA	-0.165
TCCACCCA	-0.225
CATTAGGG	-0.147
